Earlier results as cited in several papers.
Each numbered part shows a few of the values that one paper quotes.
Sequence of UniProt P06239 (whole entry, looked up): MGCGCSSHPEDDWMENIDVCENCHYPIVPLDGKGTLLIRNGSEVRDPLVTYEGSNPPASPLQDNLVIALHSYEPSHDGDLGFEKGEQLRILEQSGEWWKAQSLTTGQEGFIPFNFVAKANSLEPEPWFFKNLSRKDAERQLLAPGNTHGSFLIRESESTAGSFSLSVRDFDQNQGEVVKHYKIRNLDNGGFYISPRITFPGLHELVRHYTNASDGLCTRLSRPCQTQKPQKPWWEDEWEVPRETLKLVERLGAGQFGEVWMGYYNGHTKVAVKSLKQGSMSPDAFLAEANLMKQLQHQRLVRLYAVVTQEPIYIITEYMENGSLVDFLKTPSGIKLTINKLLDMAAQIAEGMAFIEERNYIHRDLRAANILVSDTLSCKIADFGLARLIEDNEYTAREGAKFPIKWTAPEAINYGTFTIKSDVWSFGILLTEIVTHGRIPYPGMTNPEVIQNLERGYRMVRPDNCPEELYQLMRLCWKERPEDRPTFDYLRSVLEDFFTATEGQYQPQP

Set 1
Organism: Cryptosporidium parvum
Technique: high-throughput screen
Concentration: concentration not given
Quantity: activity
NC12CC3CC(CC(C3)C1)C2: inactive
CCC(=O)OCC(=O)[C@@]1(OC(=O)CC)[C@@H](C)C[C@H]2[C@@H]3CCC4=CC(=O)C=C[C@]4(C)[C@@]3(Cl)[C@@H](O)C[C@@]21C: inactive
CC(C)(C)NCC(O)COc1cccc2c1CC(O)C(O)C2 (stereo not shown): inactive
CCOC(=O)OC(C)OC1=C(C(=O)Nc2ccccn2)N(C)S(=O)(=O)c2ccccc21 (stereo not shown): inactive
CN1[C@@H]2CC[C@H]1C[C@@H](OC(=O)C(CO)c1ccccc1)C2 (stereo partly shown): inactive
C[C@H]1C[C@H]2[C@@H]3CCC4=CC(=O)C=C[C@]4(C)[C@@]3(Cl)[C@@H](O)C[C@]2(C)[C@@]1(O)C(=O)CO: inactive
CC(=O)[C@H]1CC[C@H]2[C@@H]3C[C@H](C)C4=CC(=O)CC[C@]4(C)[C@H]3[C@@H](O)C[C@]12C: inactive
CCC1=C[C@@H]2CN(C1)Cc1c([nH]c3ccccc13)[C@@](C(=O)OC)(c1cc3c(cc1OC)N(C)[C@H]1[C@@](O)(C(=O)OC)[C@H](OC(C)=O)[C@]4(CC)C=CCN5CC[C@]31[C@@H]54)C2.O=C(O)C(O)C(O)C(=O)O.O=C(O)C(O)C(O)C(=O)O: inactive
CC[C@@H](CO)NCCN[C@@H](CC)CO: inactive

Single results of other studies
C[C@@H](NC(=O)N1C(=O)[C@H](Cc2ccnc(N)c2)[C@H]1C(=O)O)C1CCCCC1 — aPTT ratio (human; intravenous infusion, 0.6 mg/kg/h, 5 days; reference: baseline): ~1.7
CCN1CCN(Cc2ccc(Nc3ncc(F)c(-c4cc(F)c5nc(C)n(C(C)C)c5c4)n3)nc2)CC1 — incidence of venous thromboembolism (breast cancer patients; dose not given): 5%
Cc1c(NC(=O)c2cc(C(N)=O)nc3cc(F)ccc23)c(C(F)(F)F)nn1Cc1ccc(C#N)cc1 — IC50 (PTGER4; binding, radioligand binding Eurofins-Panlabs): 1120 nM
CC(C)(CO)c1cc2cc(NC(=O)C3(c4ccc5c(c4)OC(F)(F)O5)CC3)c(F)cc2n1C[C@@H](O)CO — oral clearance (human): 1.39 L/h
CN1C(=O)[C@@H](N2CCc3c(nn(Cc4ccccc4)c3Br)C2=O)COc2ccccc21 — IC50 (RIPK1 (human); cellular activity): 1.3 nM
COc1cc2ncnc(Nc3ccc(Oc4ccccc4)cc3)c2cc1OC — IC50 (LCK (Homo sapiens, UniProt P06239)): 88 nM
COCCOc1nc(-c2ccc(Cl)nc2)nc2c1CN(C(=O)c1ncn3ccccc13)CC2 — IC50 (adenosine transporter guinea pig; radioligand binding): 1610 nM
Cc1nn(C)cc1S(=O)(=O)NC(=O)c1ccc(-n2ccc(OCC(C)(C)C(F)(F)F)n2)nc1N1C[C@@H](C)CC1(C)C — gut wall elimination, fraction escaping (human): 1
CO[C@@H](C)c1c(Nc2ccc([C@@H](N(C)C(=O)C3CCS(=O)(=O)CC3)C(F)(F)F)cc2)cnc2cc(Cl)nn12 — IC50 (human MALT1; biochemical; high salt): 190 nM
CC(=O)c1c(C)c2cnc(Nc3ccc(N4CCNCC4)cn3)nc2n(C2CCCC2)c1=O — AUC(0-24 h) (beagle dog female; 0.6 mg/kg): 543 ng·h/mL

Repeated from above (set 1):
CC(C)(C)NCC(O)COc1cccc2c1CC(O)C(O)C2 (stereo not shown): inactive
CCC(=O)OCC(=O)[C@@]1(OC(=O)CC)[C@@H](C)C[C@H]2[C@@H]3CCC4=CC(=O)C=C[C@]4(C)[C@@]3(Cl)[C@@H](O)C[C@@]21C: inactive
